# Experimental data collected from several papers.
# Each line is one published result; not all experiments were run side by side. Numbers after ± are the reported error.
SMILES,cell line,assay,conditions,CC50
O=C(Nc1ccccc1SSc1ccccc1NC(=O)c1ccccc1)c1ccccc1,MDCK,"cell growth or viability, trypan blue",72 h,20 µg/mL
COC(=O)c1c(CCl)cc(O)c(=O)c(O)c1C(=O)OC,HepDES19,,,> 80 µM
Cc1cc(-n2c(=O)ccc3cnc4[nH]ccc4c32)ccc1F,Calu-3,"cell growth or viability, resazurin",,> 60 µM
CC(=O)c1c(C)cc(O)c(=O)c(O)c1Br,HepDES19,,,43 ± 4.1 µM
O=C(c1ccco1)n1nnc2ccccc21,Vero (eGFP),,15 h,> 100 µM
O=c1c(O)ccc(-c2ccc(-c3ccccc3)cc2)cc1O,HepDES19,,,20 ± 9.3 µM
Oc1ccc([C@@H]2Oc3ccc(/C=C/c4cc(O)cc(O)c4)cc3[C@H]2c2cc(O)cc(O)c2)cc1,human cells,,48 (unit not given),27.1 µM
Cc1ccccc1CN1CCC(C(=O)N2CCc3ccccc32)CC1,Vero (eGFP),,15 h,> 100 µM
CC(C)CC(NC(=O)OCc1ccccc1)C(=O)NC(CC1CCNC1=O)C(=O)C(=O)NC1CC1 (stereo not shown),MDCK,,5 (unit not given),> 250 µM
CCC(C)C1OC2(CCC1C)CC1CC(C/C=C(\C)C(OC3CC(OC)C(OC4CC(OC)C(O)C(C)O4)C(C)O3)C(C)/C=C/C=C3\COC4C(O)C(C)=CC(C(=O)O1)C34O)O2 (stereo not shown),Calu-3,"cell growth or viability, MTS",48 h,> 100 µM
COc1cc(/C=C/c2ccc3c(c2)[C@@H](c2cc(O)cc(O)c2)[C@H](c2ccc(O)cc2)O3)cc(OC)c1,human cells,,48 (unit not given),26.2 µM
COC(=O)c1cc(O)c(=O)c(O)cc1C,HepDES19,,,> 92 µM
C[C@H](NC(=O)Cc1cc(F)cc(F)c1)C(=O)N[C@@H]1C(=O)N(C)c2ccccc2-c2ccccc21,Huh-7.5.1,"cell growth or viability, ATP luminescence",48 h,31.5 µM
COc1cc(O)c2c(c1)/C=C/C[C@H](O)[C@H](O)C(=O)/C=C\C[C@H](C)OC2=O,Calu-3,"cell growth or viability, resazurin",,> 60 µM
CC(C)[C@H](O)C(=O)N[C@@H](C)C(=O)N[C@@H]1C(=O)N(C)CCc2ccccc21,Huh-7.5.1,"cell growth or viability, ATP luminescence",48 h,> 64 µM
CC(C)C(=O)OC[C@H]1O[C@@](C#N)(n2ccc(N)nc2=O)[C@H](O)[C@@H]1O,Calu-3,cell growth or viability,,> 100 µM
O=c1c(O)ccc(-c2cccc(-c3ccccc3)c2)cc1O,HepDES19,,,56 ± 7.4 µM
O=C(NC(Cc1ccc2c(c1)OCO2)C(=O)N1CCCC1C(=O)O)c1ccccc1 (stereo not shown),Vero (eGFP),,15 h,> 100 µM
CCOC(=O)c1cc(O)c(=O)c(O)cc1C,HepDES19,,,93 ± 25 µM
COc1ccc2c3c([nH]c2c1)[C@H](CC(C)C)N1C(=O)[C@H](CCC(=O)OC(C)(C)C)NC(=O)[C@@H]1C3,A549,MTT,"72 h, second print",22.9 µM
COc1cc(OC)cc([C@@H]2c3cc(/C=C/c4cc(O)cc(O)c4)ccc3O[C@H]2c2ccc(O)cc2)c1,Calu-3,,24 (unit not given),38.1 µM
N=C(N)NCCC[C@H](NC(=O)[C@H](CCCNC(=N)N)NC(=O)[C@H](CCCNC(=N)N)NC(=O)[C@H](CCC(N)=O)NC(=O)[C@H](CCCNC(=N)N)NC(=O)[C@H](CCCNC(=N)N)NC(=O)[C@H](CCCCN)NC(=O)[C@H](CCCCN)NC(=O)[C@H](CCCNC(=N)N)NC(=O)CNC(=O)[C@H](Cc1ccc(O)cc1)NC(=O)[C@H](Cc1ccccc1)NC(=O)[C@H](Cc1ccccc1)NC(=O)[C@H](Cc1ccccc1)NC(=O)OCC1c2ccccc2-c2ccccc21)C(=O)O,RAW264.7,cell growth or viability,,> 64 µM
Cc1cc(C(=O)NC2C=CS(=O)(=O)C2)c2c(C)nn(C)c2n1 (stereo not shown),Vero (eGFP),,15 h,> 100 µM
COC(=O)c1c(C)cc(O)c(=O)c(O)c1Br,HepDES19,,,78 ± 31 µM
COc1cc(/C=C/c2ccc3c(c2)[C@@H](c2cc(OC)cc(OC)c2)[C@H](c2ccc(O)cc2)O3)cc(OC)c1,human cells,,1 (unit not given),1030 µM
